# Measurements gathered from unrelated publications.
# “And” joins repeats or separate records; there may be more than shown. ± marks the error that the study gave.
# Melanocortin receptor 5: Melanocortin receptor 5 (Mus musculus, UniProt P41149)
# UniProt P41149, sequence (whole entry, looked up): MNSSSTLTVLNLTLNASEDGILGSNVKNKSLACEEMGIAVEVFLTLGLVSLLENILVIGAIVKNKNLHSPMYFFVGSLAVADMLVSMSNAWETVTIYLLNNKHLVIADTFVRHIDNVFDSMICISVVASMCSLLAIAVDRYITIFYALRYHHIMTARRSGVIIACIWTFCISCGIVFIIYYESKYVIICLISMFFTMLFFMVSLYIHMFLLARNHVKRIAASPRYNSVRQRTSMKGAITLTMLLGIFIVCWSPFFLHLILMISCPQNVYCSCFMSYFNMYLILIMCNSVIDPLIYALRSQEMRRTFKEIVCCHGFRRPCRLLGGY
# UniProt Q5S006, sequence (whole entry, looked up): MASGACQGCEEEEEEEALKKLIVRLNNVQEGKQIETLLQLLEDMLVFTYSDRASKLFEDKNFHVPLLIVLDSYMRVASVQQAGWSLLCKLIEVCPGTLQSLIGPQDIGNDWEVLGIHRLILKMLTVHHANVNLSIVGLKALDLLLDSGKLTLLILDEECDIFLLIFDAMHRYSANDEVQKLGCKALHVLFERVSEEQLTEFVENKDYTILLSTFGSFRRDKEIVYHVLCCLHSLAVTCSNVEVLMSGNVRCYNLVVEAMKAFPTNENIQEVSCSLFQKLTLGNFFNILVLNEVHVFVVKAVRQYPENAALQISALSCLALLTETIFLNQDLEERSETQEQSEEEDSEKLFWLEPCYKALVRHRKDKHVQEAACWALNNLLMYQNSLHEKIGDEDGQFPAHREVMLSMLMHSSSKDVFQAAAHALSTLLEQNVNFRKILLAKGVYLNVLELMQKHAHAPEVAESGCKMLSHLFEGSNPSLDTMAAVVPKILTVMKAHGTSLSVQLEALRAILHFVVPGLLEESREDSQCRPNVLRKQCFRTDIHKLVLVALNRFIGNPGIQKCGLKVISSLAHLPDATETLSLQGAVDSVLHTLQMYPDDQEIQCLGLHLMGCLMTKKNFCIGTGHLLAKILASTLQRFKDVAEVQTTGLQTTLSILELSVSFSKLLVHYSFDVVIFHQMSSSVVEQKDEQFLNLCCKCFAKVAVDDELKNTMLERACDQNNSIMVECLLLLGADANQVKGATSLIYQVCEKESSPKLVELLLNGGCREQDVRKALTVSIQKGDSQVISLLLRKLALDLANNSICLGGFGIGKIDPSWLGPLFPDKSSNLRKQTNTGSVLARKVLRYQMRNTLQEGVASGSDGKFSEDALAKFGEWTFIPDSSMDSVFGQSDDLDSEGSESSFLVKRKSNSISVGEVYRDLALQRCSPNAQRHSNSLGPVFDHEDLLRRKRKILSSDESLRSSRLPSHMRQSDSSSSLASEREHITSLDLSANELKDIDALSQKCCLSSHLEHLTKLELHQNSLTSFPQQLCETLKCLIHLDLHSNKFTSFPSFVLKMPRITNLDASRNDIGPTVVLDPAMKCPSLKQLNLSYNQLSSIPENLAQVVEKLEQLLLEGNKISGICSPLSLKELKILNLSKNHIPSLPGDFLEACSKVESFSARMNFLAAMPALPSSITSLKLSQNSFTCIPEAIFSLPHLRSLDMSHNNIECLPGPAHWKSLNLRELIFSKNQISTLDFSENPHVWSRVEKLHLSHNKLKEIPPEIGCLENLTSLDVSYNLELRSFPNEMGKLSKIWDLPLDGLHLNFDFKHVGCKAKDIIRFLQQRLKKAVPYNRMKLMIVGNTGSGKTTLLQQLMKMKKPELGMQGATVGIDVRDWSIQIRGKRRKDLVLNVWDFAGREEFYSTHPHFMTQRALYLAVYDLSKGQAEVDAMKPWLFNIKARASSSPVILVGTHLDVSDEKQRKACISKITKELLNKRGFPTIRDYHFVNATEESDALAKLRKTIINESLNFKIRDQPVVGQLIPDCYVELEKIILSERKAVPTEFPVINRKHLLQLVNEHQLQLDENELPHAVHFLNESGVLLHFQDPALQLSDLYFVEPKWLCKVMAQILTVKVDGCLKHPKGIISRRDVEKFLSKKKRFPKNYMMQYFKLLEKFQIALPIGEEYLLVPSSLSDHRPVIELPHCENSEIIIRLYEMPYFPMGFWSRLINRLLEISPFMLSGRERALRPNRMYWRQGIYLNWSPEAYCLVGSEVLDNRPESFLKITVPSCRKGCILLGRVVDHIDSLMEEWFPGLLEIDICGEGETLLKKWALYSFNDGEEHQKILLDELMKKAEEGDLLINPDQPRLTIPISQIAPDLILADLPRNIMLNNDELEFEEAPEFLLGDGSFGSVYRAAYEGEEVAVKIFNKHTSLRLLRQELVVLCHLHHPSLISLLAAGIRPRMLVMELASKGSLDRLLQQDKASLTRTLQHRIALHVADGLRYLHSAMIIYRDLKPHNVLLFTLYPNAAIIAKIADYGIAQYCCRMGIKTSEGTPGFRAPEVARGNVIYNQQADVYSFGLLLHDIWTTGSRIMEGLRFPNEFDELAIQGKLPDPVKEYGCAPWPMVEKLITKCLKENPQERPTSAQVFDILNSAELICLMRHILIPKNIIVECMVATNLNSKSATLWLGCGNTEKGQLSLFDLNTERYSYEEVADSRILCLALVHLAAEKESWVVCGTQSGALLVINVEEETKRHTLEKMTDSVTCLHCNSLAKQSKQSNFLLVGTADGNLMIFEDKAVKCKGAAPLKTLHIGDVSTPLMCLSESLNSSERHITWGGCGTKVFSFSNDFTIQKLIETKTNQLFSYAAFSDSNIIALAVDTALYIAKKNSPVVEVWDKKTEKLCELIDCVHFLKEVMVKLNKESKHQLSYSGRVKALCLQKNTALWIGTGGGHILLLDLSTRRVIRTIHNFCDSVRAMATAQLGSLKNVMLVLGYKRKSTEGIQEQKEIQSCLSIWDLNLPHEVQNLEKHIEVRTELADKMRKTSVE
# UniProt Q80W57, sequence (whole entry, looked up): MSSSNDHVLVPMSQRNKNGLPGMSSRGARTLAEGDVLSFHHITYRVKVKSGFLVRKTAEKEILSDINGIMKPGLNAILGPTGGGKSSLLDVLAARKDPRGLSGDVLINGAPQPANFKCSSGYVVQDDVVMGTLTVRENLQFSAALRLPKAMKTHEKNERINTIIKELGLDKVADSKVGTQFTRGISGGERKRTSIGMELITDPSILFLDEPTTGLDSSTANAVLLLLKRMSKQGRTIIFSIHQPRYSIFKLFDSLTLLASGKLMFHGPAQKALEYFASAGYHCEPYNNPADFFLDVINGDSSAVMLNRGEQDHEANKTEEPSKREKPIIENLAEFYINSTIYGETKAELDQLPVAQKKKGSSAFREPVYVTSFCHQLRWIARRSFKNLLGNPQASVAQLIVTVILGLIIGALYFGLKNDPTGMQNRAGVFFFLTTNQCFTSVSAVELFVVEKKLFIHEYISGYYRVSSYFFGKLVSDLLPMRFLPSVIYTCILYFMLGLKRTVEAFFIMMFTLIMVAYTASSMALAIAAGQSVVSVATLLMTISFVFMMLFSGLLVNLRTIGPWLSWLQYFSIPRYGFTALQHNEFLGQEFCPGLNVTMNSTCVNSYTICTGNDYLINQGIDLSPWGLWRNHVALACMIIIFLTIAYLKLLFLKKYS
SMILES,target or system,test,test system,setting,endpoint,value
CC(C)/C=C/c1c(O)cc(/C=C/c2ccccc2)cc1O,"iNOS, mouse","NO production, inhibitor",RAW264.7,added: LPS,IC50,> 25 µg/mL
O=C(OCc1ccccc1)c1ccccc1,cysteine peptide Ac-RFAACAA-COOH,"peptide depletion, DPRA RapidFire-MS/MS",,"24 h, pH 7.5, room temperature, added: 5.0 µM cysteine peptide",IC50,inactive
"Nc1nc2c(ncn2[C@@H]2O[C@H](COP(=O)(O)O[P@](O)(=S)OP(=O)(O)O)[C@@H](O)[C@H]2O)c(=O)[nH]1 (single isomer, unassigned)",Saccharomyces cerevisiae,"vacuole fusion, inhibitor, in vitro vacuole fusion",,"0.5 mM, 120 min, 25 °C",inhibition,23%
CSCC[C@H](NC(=O)[C@H](CO)NC(=O)[C@H](Cc1ccc(O)cc1)NC(=O)[C@H](CO)NC(C)=O)C(=O)N[C@@H](CCC(=O)O)C(=O)N[C@@H](Cc1c[nH]cn1)C(=O)N[C@@H](Cc1ccccc1)C(=O)N[C@@H](CCCNC(=N)N)C(=O)N[C@@H](Cc1c[nH]c2ccccc12)C(=O)NCC(=O)N[C@@H](CCCCN)C(=O)N[C@@H](C)C(=O)N[C@H](C(N)=O)C(C)C,Melanocortin receptor 5,,,,EC50,30 ± 25 nM
O=C(O)/C=C/c1ccc(O)c(O)c1,class I HDAC,enzyme activity,bovine heart lysate,,IC50,81 µM
Cc1cccc(C)c1NC(=O)C1CCCN1Cc1ccccc1 (racemic),sodium channel Nav1.4 (frog),"tonic block of sodium current, vaseline-gap voltage clamp",Pelophylax lessonae semitendinosus fibres,10 °C,IC50,82.2 ± 4.3 µM
Brc1ccc(SSc2ccc(Br)cc2)cc1,tubulin,,,,IC50,5.1 ± 0.5 µM
NC[C@H]1O[C@H](O[C@H]2[C@H](O)[C@@H](O[C@H]3O[C@H](CO)[C@@H](O)[C@H](N)[C@H]3O)[C@H](N)C[C@@H]2N)[C@H](N)C[C@@H]1O,HIV-1 nucleocapsid protein-SL3 RNA complex,"complex dissociation, ESI-FTMS",,preformed complex ~3.5 µM,IC50,321 ± 14.5 µM
O=C(Nc1ccc(Cl)cc1)C1CCN(Cc2ccccc2)C1 (stereo not shown),sodium channel Nav1.4 (frog),"tonic block of sodium current, vaseline-gap voltage clamp",Pelophylax lessonae semitendinosus fibres,10 °C,IC50,35.7 ± 5.6 µM
CC(C=O)Cc1ccc(C(C)C)cc1 (stereo not shown),cysteine peptide Ac-RFAACAA-COOH,"peptide depletion, DPRA RapidFire-MS/MS",,"24 h, pH 7.5, room temperature, added: 5.0 µM cysteine peptide",IC50,29.1 µM
Nc1nc2c(ncn2[C@@H]2O[C@H](COP(=O)(O)OP(=O)(O)OP(O)(O)=S)[C@@H](O)[C@H]2O)c(=O)[nH]1,Saccharomyces cerevisiae,vacuole fusion,,"0.2 mM, 120 min, 25 °C, vacuoles preincubated and reisolated",inhibition,33%
Cc1cc(N)c2ccccc2[n+]1CCCCCCCCCC[n+]1c(C)cc(N)c2ccccc21,"CNG channel S4/S5-CNGA1, Bos taurus","cGMP-activated current, blocker, inside-out patch clamp",,"pH 7.2, room temperature, 0 mV holding, steps to +20 mV, added: cGMP 2 mM",IC50,0.36 ± 0.0087 µM
Nc1ncnc2c1ncn2[C@@H]1O[C@H](COP(=O)(O)OP(=O)(O)O)[C@@H](O)[C@H]1O,"Sodium/potassium-transporting ATPase subunit alpha-1 (ATP1A1, Sus scrofa, UniProt P05024)","binding, radioligand binding",pig membranes,"pH 7.7, 0 °C, ionic strength 528 mM, added: NaCl 469 mM",Kd,7.11 ± 0.124 µM
CN1CCc2c(c3ccccc3n2Cc2ccc(C(=O)NO)cc2)C1,"histone deacetylase, mouse",inhibitor,GL261 cell nuclear extract,,IC50,1.32 µM
O=c1c(O)c(-c2ccc(O)cc2)oc2cc(O)cc(O)c12,class I HDAC,enzyme activity,bovine heart lysate,,IC50,39 µM
CC(C)(O)C(O)Cc1c(O)cc(/C=C/c2ccc(O)cc2)cc1O (stereo not shown),"iNOS, mouse","NO production, inhibitor",RAW264.7,added: LPS,IC50,> 25 µg/mL
O=C(O)[C@H]1O[C@@H](Oc2cc3oc(-c4ccccc4)cc(=O)c3c(O)c2O)[C@H](O)[C@@H](O)[C@@H]1O,class I HDAC,enzyme activity,bovine heart lysate,,IC50,52 µM
[Ca+2],"cone cGMP-gated channel, Morone saxatilis","ion current, inside-out patch clamp",,"after EDTA/EGTA, -40 mV, added: calmodulin 200 nM, cGMP 60 µM",IC50,0.357 µM and 0.366 µM
O=C1C[C@@H](c2ccc(O)c(O)c2)Oc2cc(O)cc(O)c21,human intestinal sulfotransferases,"DHEA sulfation, radiometric",human intestine cytosol,added: DHEA 2 µM,IC50,66.1 ± 20.2 µM
CC(O)C(=O)O (stereo not shown),cysteine peptide Ac-RFAACAA-COOH,"peptide depletion, DPRA RapidFire-MS/MS",,"24 h, pH 7.5, room temperature, added: 5.0 µM cysteine peptide",IC50,inactive
Cc1cccc(C)c1NC(=O)C1CCCN(Cc2ccccc2)C1 (stereo not shown),sodium channel Nav1.4 (frog),"tonic block of sodium current, vaseline-gap voltage clamp",Pelophylax lessonae semitendinosus fibres,10 °C,IC50,38.5 ± 1.5 µM
O=C(O)c1cc(/N=N/c2ccc(S(=O)(=O)Nc3ccccn3)cc2)ccc1O,"Broad substrate specificity ATP-binding cassette transporter ABCG2 (Abcg2, Rattus norvegicus, UniProt Q80W57)",substrate,"Sprague-Dawley rat, male, plasma","oral, 2 mg/kg, added: 3,6,3',4'-tetramethoxyflavone 5 mg/kg",Cmax,162 ± 19 ng/mL
Nc1ncnc2c1ncn2[C@@H]1O[C@H](COP(=O)(O)OP(=O)(O)O)[C@@H](O)[C@H]1O,"Leucine-rich repeat serine/threonine-protein kinase 2 (Lrrk2, Mus musculus, UniProt Q5S006)","enzyme activity, inhibitor, TR-FRET",,"Ki,e, added: PLK-peptide varied",Ki,100 ± 30 µM
O=c1c(O)c(-c2ccc(O)c(O)c2)oc2cc(O)cc(O)c12,class I HDAC,enzyme activity,bovine heart lysate,,IC50,36 µM
Cc1cccc(C)c1NC(=O)C1CCCCN1Cc1ccccc1 (stereo not shown),sodium channel Nav1.4 (frog),"tonic block of sodium current, vaseline-gap voltage clamp",Pelophylax lessonae semitendinosus fibres,10 °C,IC50,146 ± 14.9 µM
CCCC[C@H](NC(=O)[C@H](CO)NC(=O)[C@H](Cc1ccc(O)cc1)NC(=O)[C@H](CO)NC(C)=O)C(=O)N[C@@H](CCC(=O)O)C(=O)N[C@@H](Cc1c[nH]cn1)C(=O)N[C@H](Cc1ccccc1)C(=O)N[C@@H](CCCNC(=N)N)C(=O)N[C@@H](Cc1c[nH]c2ccccc12)C(=O)NCC(=O)N[C@@H](CCCCN)C(=O)N[C@@H](C)C(=O)N[C@H](C(N)=O)C(C)C,Melanocortin receptor 5,,,,EC50,0.18 ± 0.03 nM
Nc1c2c(nc3ccccc13)CCCC2,sandwich-cultured primary rat hepatocytes,substrate,,,Km,31.5 ± 9.6 µM
CCCCCCCC(=O)O,cysteine peptide Ac-RFAACAA-COOH,"peptide depletion, DPRA RapidFire-MS/MS",,"24 h, pH 7.5, room temperature, added: 5.0 µM cysteine peptide",IC50,331 µM
Cc1ccc(S(=O)(=O)N[C@@H](CCCCN)C(=O)CCl)cc1,E1 Blattella germanica protease,covalent inhibitor,,"1 h preincubation, added: QAR-AMC",IC50,32 ± 3 µM
CC(CC=O)CCCC(C)(C)O (stereo not shown),cysteine peptide Ac-RFAACAA-COOH,"peptide depletion, DPRA RapidFire-MS/MS",,"24 h, pH 7.5, room temperature, added: 5.0 µM cysteine peptide",IC50,inactive
O=c1c(O)c(-c2ccc(O)cc2O)oc2cc(O)cc(O)c12,class I HDAC,enzyme activity,bovine heart lysate,,IC50,45 µM
Clc1ccccc1SSc1ccccc1Cl,tubulin,,,,IC50,1.4 ± 0.2 µM
c1ccc2c(NCCCn3ccnc3)ncnc2c1,Fe-SOD (Trypanosoma cruzi),inhibitor,Trypanosoma cruzi,epimastigotes,IC50,66 µM
Nc1nc2ccc(OC(F)(F)F)cc2s1,TRPM4 (EGFP-tagged),"ion current, inhibitor, whole-cell nystatin-patch clamp",,"extracellular Ca2+ 2 mM, -50 mV, added: A23187 20 µM, Cs+ carrier",IC50,31.4 µM
O=C1c2c(O)cc(O)cc2O[C@H](c2cc(O)c(O)c(O)c2)[C@H]1O,class I HDAC,enzyme activity,bovine heart lysate,,IC50,36 µM
CCO/C=C1\N=C(c2ccccc2)OC1=O,cysteine peptide Ac-RFAACAA-COOH,"peptide depletion, DPRA RapidFire-MS/MS",,"24 h, pH 7.5, room temperature, added: 5.0 µM cysteine peptide",IC50,9.09 µM
O=c1c(O)c(-c2ccc(O)c(O)c2)oc2cc(O)cc(O)c12,CYP3A,inhibitor,pooled human liver microsomes,no preincubation,IC50,10.4 µM
COc1ccc(C)c2sc(N(Cc3cccnc3)C(=O)c3ccc(C#N)cc3)nc12,Trypanosoma cruzi,trypomastigote viability,Tulahuen,"87 µM, 48 h, solid sample",activity,87%
C=C(C)C(=O)OCC(C)O (stereo not shown),cysteine peptide Ac-RFAACAA-COOH,"peptide depletion, DPRA RapidFire-MS/MS",,"24 h, pH 7.5, room temperature, added: 5.0 µM cysteine peptide",IC50,inactive
CS(=O)(=O)c1ccc(Oc2cc(F)cc(C#N)c2)c2c1[C@H](O)C(F)(F)C2,HIF-2 (human),"reporter gene, inhibitor","786-O, HRE luciferase reporter",24 h,IC50,0.042 µM
Fc1ccccc1SSc1ccccc1F,tubulin,,,,IC50,2.4 ± 0.3 µM
CC(C)(O)C(O)Cc1cc(/C=C/c2cc(O)cc(O)c2)ccc1O (stereo not shown),"iNOS, mouse","NO production, inhibitor",RAW264.7,added: LPS,IC50,> 25 µg/mL
Clc1ccc(SSc2ccc(Cl)cc2)cc1,tubulin,,,,IC50,4.6 ± 0.7 µM
C=C(C)[C@@H]1CC=C(C=O)CC1,cysteine peptide Ac-RFAACAA-COOH,"peptide depletion, DPRA RapidFire-MS/MS",,"24 h, pH 7.5, room temperature, added: 5.0 µM cysteine peptide",IC50,116 µM
Brc1cccc(SSc2cccc(Br)c2)c1,tubulin,,,,IC50,4 ± 0.5 µM
CCCC[C@H](NC(C)=O)C(=O)N[C@H]1CCC(=O)NC[C@@H](C(=O)N[C@@H](Cc2c[nH]c3ccccc23)C(N)=O)NC(=O)[C@H](CCCNC(=N)N)NC(=O)[C@@H](Cc2ccccc2)NC(=O)[C@H](Cc2c[nH]cn2)NC1=O,,,"beagle dog, female, plasma","subcutaneous, 8.0 mg/kg daily, day 14",Cmax,547 ng/mL
